Measured values from different studies.
Each line is one published result; not all experiments were run side by side.
CA2: Carbonic anhydrase 2 (CA2, Homo sapiens, UniProt P00918)
CA2 A65S/F130A/I91T/L203N/N67K/V134S: Carbonic anhydrase 2 (CA2, Homo sapiens, UniProt P00918, A65S/F130A/I91T/L203N/N67K/V134S)

SMILES	target	assay	setting	quantity	result
NS(=O)(=O)c1ccc(Nc2nc3nccc(-c4ccc5ccccc5c4)n3n2)cc1	CA2	enzyme activity, inhibitor, stopped-flow	–	Ki	0.326 µM
NS(=O)(=O)c1ccc(CCn2c(SCC(=O)N/N=C/c3ccccc3O)nc3ccccc3c2=O)cc1	CA2	enzyme activity, inhibitor, stopped-flow	–	Ki	0.0275 µM
NS(=O)(=O)c1c(F)c(F)cc(F)c1N[C@H]1CCCc2ccccc21	CA2 A65S/F130A/I91T/L203N/N67K/V134S	–	pH 7	Kd	12.5 µM
Cc1ccc(S(=O)(=O)Nc2cccc(C)c2C)cc1	CA2	enzyme activity, inhibitor	–	IC50	1.91 µM
NS(=O)(=O)c1ccc(NC(=O)NN[C@@H]2O[C@H](CO)[C@@H](O)[C@H](O)[C@H]2O)cc1	CA2	enzyme activity, inhibitor	–	IC50	0.015 µM
COCCOc1cc2ncnc(Nc3cccc(-c4cn(CCc5ccc(S(N)(=O)=O)cc5)nn4)c3)c2cc1OCCOC	CA2	enzyme activity, inhibitor, stopped-flow	–	Ki	0.0184 µM
CC(=O)Nc1ncc(S(N)(=O)=O)s1	CA2	enzyme activity, inhibitor	–	Ki	0.0972 µM
COc1ccc(O)c(C2=NN(c3ccc(S(N)(=O)=O)cc3)C(c3ccc(Br)cc3)C2)c1 (stereo not drawn)	CA2	enzyme activity, inhibitor, absorbance	–	IC50	1.31 µM
NS(=O)(=O)c1c(F)c(F)c(SCCc2ccc(C(=O)O)cc2)c(F)c1F	CA2	–	–	Kd	0.002 µM
C[C@@H]1O[C@@H](NNC(=O)Nc2ccc(S(N)(=O)=O)cc2)[C@H](O)[C@H](O)[C@H]1O	CA2	enzyme activity, inhibitor	–	IC50	0.058 µM
COc1ccc(C(=O)Nc2cccc(S(N)(=O)=O)c2)cc1OC	CA2	enzyme activity, inhibitor, absorbance	–	IC50	0.18 µM
NS(=O)(=O)c1c(F)c(F)cc(F)c1NC1CCCCCCC1	CA2 A65S/F130A/I91T/L203N/N67K/V134S	–	pH 7	Kd	4 µM
Cc1ccc(S(=O)(=O)Nc2ccccc2Sc2ccccc2)cc1	CA2	enzyme activity, inhibitor	–	IC50	1.02 µM
COc1c(C)occc1=S	CA2	esterase activity, inhibitor	10 min preincubation, pH 8.0, added: p-nitrophenyl acetate	Ki	> 50000 µM
NS(=O)(=O)c1cc(C(=O)NCCCC(=O)O)c(S(=O)(=O)c2ccccc2)cc1Cl	CA2 A65S/F130A/I91T/L203N/N67K/V134S	–	pH 7	Kd	0.01 µM
COc1ccc(NC(=O)CN2C(=O)/C(=N\Nc3ccc(S(N)(=O)=O)cc3)c3ccccc32)cc1	CA2	–	–	Ki	0.18 µM
COC(=O)CCCNC(=O)c1cc(S(N)(=O)=O)c(Cl)cc1NC1CCCCC1	CA2	–	–	Kd	0.53 µM
NS(=O)(=O)c1ccc(NC(=O)NN[C@@H]2O[C@H](CO)[C@@H](O)[C@H]2O)cc1	CA2	enzyme activity, inhibitor	–	IC50	0.047 µM
CNc1c(F)c(S(N)(=O)=O)c(F)c(F)c1S(=O)(=O)CCc1ccccc1	CA2 A65S/F130A/I91T/L203N/N67K/V134S	–	pH 7	Kd	0.29 µM
COc1cccc(/C=N/NC(=O)CSc2nc3ccccc3c(=O)n2CCc2ccc(S(N)(=O)=O)cc2)c1	CA2	enzyme activity, inhibitor, stopped-flow	–	Ki	0.0647 µM
NS(=O)(=O)c1c(F)c(F)c(S(=O)(=O)CCO)c(N[C@H]2CCc3ccccc32)c1F	CA2 A65S/F130A/I91T/L203N/N67K/V134S	–	pH 7	Kd	0.0125 µM
NS(=O)(=O)c1ccc(NC(=O)NN[C@@H]2OC[C@@H](O)[C@H](O)[C@H]2O)cc1	CA2	enzyme activity, inhibitor	–	IC50	0.052 µM
NS(=O)(=O)c1ccc(N/N=C2\C(=O)N(CC(=O)Nc3ccccc3Br)c3ccccc32)cc1	CA2	–	–	Ki	0.42 µM
C#CCN(CCCOC(=O)NCCc1ccc(S(N)(=O)=O)cc1)c1cccc(C(F)(F)F)c1	CA2	enzyme activity, inhibitor, absorbance	–	IC50	0.59 µM

A few entries again:
SMILES	target	assay	setting	quantity	result
COc1cccc(/C=N/NC(=O)CSc2nc3ccccc3c(=O)n2CCc2ccc(S(N)(=O)=O)cc2)c1	CA2	enzyme activity, inhibitor, stopped-flow	–	Ki	0.0647 µM
NS(=O)(=O)c1c(F)c(F)cc(F)c1N[C@H]1CCCc2ccccc21	CA2 A65S/F130A/I91T/L203N/N67K/V134S	–	pH 7	Kd	12.5 µM
COC(=O)CCCNC(=O)c1cc(S(N)(=O)=O)c(Cl)cc1NC1CCCCC1	CA2	–	–	Kd	0.53 µM
